Results gathered from unrelated publications.
Lines come from different studies, so protocols differ. ± gives the spread as reported.

COc1cnc2cccc(N3CCc4c(cc(Cn5ccnc5)cc4-c4cn(C)nc4C(F)(F)F)C3=O)c2c1
body weight change (CD-1 mouse; intraperitoneal, 100 mg/kg once daily, day 2, dose-escalation tolerability; relative to: day 1): 2.2%

N=C(N)NCCC[C@H](NC(=O)[C@H](CCCNC(=N)N)NC(=O)[C@H](CCCNC(=N)N)NC(=O)[C@H](CCC(N)=O)NC(=O)[C@H](CCCNC(=N)N)NC(=O)[C@H](CCCNC(=N)N)NC(=O)[C@H](CCCCN)NC(=O)[C@H](CCCCN)NC(=O)[C@H](CCCNC(=N)N)NC(=O)CNC(=O)[C@H](Cc1ccc(O)cc1)NC(=O)[C@H](Cc1ccccc1)NC(=O)[C@H](Cc1ccccc1)NC(=O)[C@H](Cc1ccccc1)NC(=O)OCC1c2ccccc2-c2ccccc21)C(=O)O
health score (C57BL/6 mice; intraperitoneal, 5 mg/kg, 48 h; direction not given): 5

CCCCC(CC)COC(=O)CC(C(=O)OCC(CC)CCCC)S(=O)(=O)O.COC(=O)Nc1nc2cc(C(=O)c3ccc(F)cc3)ccc2[nH]1 (centres unmarked)
solubility (visual inspection; Capryol 90): ~30 mg/mL

O=C1NC2(CC2)COc2ncc(F)cc2[C@H]2COCCN2c2ccn3ncc1c3n2
neutrophil percentage (Sprague-Dawley rat, male, blood; oral, 2.5 mg/kg/day, 4 weeks, end of recovery, subacute toxicity): 11.3 ± 3%

NC1CCN(C(=O)Oc2ccc(C3CCCC4(C3)OOC3(O4)C4CC5CC(C4)CC3C5)cc2)CC1 (racemic)
AUC(0-t) (male mouse, plasma; oral, 50 mg/kg, single dose): 16400 ng·h/mL

CC[C@H](C)[C@H](NC(=O)[C@H](Cc1ccccc1)NC(=O)[C@H](CCCCN)NC(=O)[C@H](CCCCN)NC(=O)CNC(=O)[C@H](C)NC(=O)[C@H](CC(N)=O)NC(=O)[C@H](CCCCN)NC(=O)[C@H](Cc1ccccc1)NC(=O)[C@H](CC(N)=O)NC(=O)[C@H](CCC(=O)O)NC(=O)[C@H](Cc1c[nH]c2ccccc12)NC(=O)[C@H](CC(C)C)NC(=O)[C@@H](N)CO)C(=O)N[C@@H](CC(C)C)C(=O)N[C@@H](CC(N)=O)C(=O)N[C@H](C(=O)N[C@@H](CC(C)C)C(=O)N[C@@H](CC(=O)O)C(=O)N[C@@H](CCCCN)C(N)=O)[C@@H](C)CC
HC50 (horse erythrocytes; 2 h, 37 °C; relative to: Triton X-100): > 128 µM

CCN(CC)CCOc1ccc(-c2nnn(Cc3ccc(OC)cc3)c2N)cc1
mean blood pressure increase (beagle dog; oral, at least 40 mg/kg): ≤ 12%

CC[C@H](C)[C@H](NC(=O)[C@H](CCCCN)NC(=O)CNC(=O)[C@H](CC(C)C)NC(=O)[C@H](Cc1ccccc1)NC(=O)[C@H](CCCCN)NC(=O)[C@H](CO)NC(=O)[C@H](Cc1ccccc1)NC(=O)[C@H](Cc1c[nH]c2ccccc12)NC(=O)[C@H](CCC(N)=O)NC(=O)[C@@H](NC(=O)[C@H](Cc1ccccc1)NC(=O)CCCCCNC(=O)CN1CCN(CC(=O)O)CCN(CC(=O)O)CCN(CC(=O)O)CC1)C(C)C)C(=O)N[C@@H](CCC(=O)O)C(=O)N1CCC[C@H]1C(=O)N[C@@H](CC(=O)O)C(=O)N[C@H](C(=O)N[C@@H](CO)C(=O)N[C@@H](CCC(N)=O)C(=O)N[C@H](C(=O)N[C@@H](CCC(N)=O)C(=O)N[C@@H](CC(=O)O)C(=O)N1CCC[C@H]1C(=O)N[C@@H](CC(N)=O)C(=O)N[C@@H](CC(=O)O)C(=O)N[C@@H](CCC(N)=O)C(=O)N[C@@H](Cc1ccc(O)cc1)C(=O)N[C@@H](CCC(=O)O)C(=O)N1CCC[C@H]1C(=O)N[C@@H](Cc1ccccc1)C(=O)O)C(C)C)C(C)C [copper-64 labelled]
tissue uptake (C57BL/6 male mouse, tumour-naive, lung; 24 h): 6.72 ± 0.6 %ID/g

N#[11C]c1ccc(-c2csc(NN=C3CCCC3)n2)cc1
uptake in stomach with contents (C57BL/6 mouse, male; intravenous, 3 MBq, 60 min): 11.4 ± 2.72 %ID/g

Cn1nc(NS(C)(=O)=O)c2c(Cl)ccc(-n3c([C@H](Cc4cc(F)cc(F)c4)NC(=O)Cn4nc(C(F)F)c5c4C(F)(F)[C@@H]4C[C@H]54)nc4nc(OCCC(F)(F)F)ccc4c3=O)c21
AUC(0-inf) (human, plasma; oral, 125 mg single dose, powder in bottle, geometric mean): 8460 ng·h/mL

[18F]c1cc(-c2ccc3c(n2)[nH]c2ccncc23)ccn1
brain initial uptake (PET imaging; Sprague-Dawley rat, both sexes; intravenous bolus): 2.5 to 2.8 SUV

CCCN(C)c1cc(C(F)(F)F)nc(SCCC(=O)NCc2ccco2)n1
tolerability (item: visible adverse effects; Wistar rat; intraperitoneal, 25 mg/kg single dose): not toxic

CC(C)C[C@H](NC(=O)[C@H](Cc1ccc(O)cc1)NC(=O)[C@H](Cc1c[nH]cn1)NC(=O)[C@@H](NC(=O)[C@H](CC(C)C)NC(=O)[C@H](C)NC(=O)[C@H](C)NC(=O)[C@H](CCCCN)NC(=O)CNC(=O)[C@@H](NC(=O)[C@H](Cc1c[nH]cn1)NC(=O)[C@H](CCCCN)NC(=O)CNC(=O)[C@@H](NC(=O)[C@H](Cc1c[nH]cn1)NC(=O)[C@H](C)NC(=O)[C@H](C)NC(=O)[C@H](CCCCN)NC(=O)[C@H](CCCCN)NC(=O)[C@H](Cc1ccccc1)NC(=O)[C@H](Cc1ccccc1)NC(=O)[C@H](CO)NC(=O)CNC(=O)[C@H](Cc1c[nH]c2ccccc12)NC(=O)CN)C(C)C)C(C)C)[C@@H](C)O)C(N)=O
chronic toxic concentration (zebrafish embryos 28 hpf, E3 medium; 24 h): 5 µM

CCCCCCCCCCCCCCCC(=O)N[C@@H](CCC(=O)NCCOCCOCCC(=O)NCCOCCOCCC(=O)NCCCC[C@H](NC(=O)[C@H](CC(=O)O)NC(=O)[C@H](CC(C)C)NC(=O)[C@H](Cc1ccc(O)cc1)NC(=O)[C@H](CCCCN)NC(=O)[C@H](CO)NC(=O)[C@H](Cc1ccc(O)cc1)NC(=O)[C@H](CC(=O)O)NC(=O)[C@H](CO)NC(=O)[C@@H](NC(=O)[C@H](Cc1ccccc1)NC(=O)[C@@H](NC(=O)CNC(=O)[C@H](CCC(N)=O)NC(=O)[C@@H](CO)NC(=O)[C@@H](N)Cc1c[nH]cn1)[C@@H](C)O)[C@@H](C)O)C(=O)N[C@@H](CCCNC(=N)N)C(=O)N[C@@H](CCCNC(=N)N)C(=O)N[C@@H](C)C(=O)N[C@@H](CCC(N)=O)C(=O)N[C@@H](CC(=O)O)C(=O)N[C@@H](Cc1ccccc1)C(=O)N[C@H](C(=O)N[C@@H](CCC(N)=O)C(=O)N[C@@H](Cc1c[nH]c2ccccc12)C(=O)N[C@@H](CC(C)C)C(=O)N[C@@H](CC(C)C)C(=O)N[C@@H](CC(N)=O)C(=O)N[C@H](C(=O)NCC(=O)NCC(=O)N1CCC[C@H]1C(=O)N[C@@H](CO)C(=O)N[C@@H](CO)C(=O)NCC(=O)N[C@@H](C)C(=O)N1CCC[C@H]1C(=O)N1CCC[C@H]1C(=O)N1CCC[C@H]1C(=O)N[C@@H](CO)C(N)=O)[C@@H](C)O)C(C)C)C(=O)O
total bilirubin (Sprague-Dawley rat, male; subcutaneous, 100 µg/kg once daily, 14 days): 1.4 ± 0.1 µmol/L

CC[C@H](C)[C@H](NC(=O)[C@H](Cc1c[nH]c2ccccc12)NC(=O)[C@H](Cc1ccc(O)cc1)NC(=O)[C@H](CCCCN)NC(=O)[C@H](CC(C)C)NC(=O)[C@H](CO)NC(=O)[C@@H](N)Cc1ccccc1)C(=O)N[C@@H](CCCNC(=N)N)C(=O)N[C@@H](Cc1ccc(O)cc1)C(=O)N[C@@H](CCCCN)C(=O)N[C@@H](CCCNC(=N)N)C(=O)N[C@@H](CCC(N)=O)C(=O)NCC(=O)N[C@@H](C)C(=O)N[C@@H](C)C(=O)N[C@@H](CCCNC(=N)N)C(=O)N[C@@H](Cc1ccccc1)C(N)=O
elution acetonitrile content (reversed-phase UPLC; C18 column, TFA): 43.7%

[2H]C([2H])([18F])[C@]([2H])(N)C(=O)O
maximum bone uptake (PET; athymic nude mouse; 90 min): ~26%

CC1COCCN1c1nc(NCc2cccnc2C(F)(F)F)c2cccnc2n1 (centres unmarked)
toxicological findings (Sprague Dawley rat; oral, 100 mg/kg once daily, 7 days): no effect

Repeated from above:
N#[11C]c1ccc(-c2csc(NN=C3CCCC3)n2)cc1
uptake in stomach with contents (C57BL/6 mouse, male; intravenous, 3 MBq, 60 min): 11.4 ± 2.72 %ID/g

Cn1nc(NS(C)(=O)=O)c2c(Cl)ccc(-n3c([C@H](Cc4cc(F)cc(F)c4)NC(=O)Cn4nc(C(F)F)c5c4C(F)(F)[C@@H]4C[C@H]54)nc4nc(OCCC(F)(F)F)ccc4c3=O)c21
AUC(0-inf) (human, plasma; oral, 125 mg single dose, powder in bottle, geometric mean): 8460 ng·h/mL

[18F]c1cc(-c2ccc3c(n2)[nH]c2ccncc23)ccn1
brain initial uptake (PET imaging; Sprague-Dawley rat, both sexes; intravenous bolus): 2.5 to 2.8 SUV
